Results collected from several papers.
A part holds a random share of what one study measured.

Block 1
Target: Histone acetyltransferase KAT6A, both winged helices, GST fusion (KAT6A, Homo sapiens, UniProt Q92794, residues 1-181)
Technique: protein binding microarray
Form: double-stranded DNA, one strand shown
Sample: in vitro
Tested at: not given
Notes: 8-mer, flanks averaged, mean of 2 arrays, mostly near background
Reference: not given
Direction: higher = stronger binding
Residues (chain): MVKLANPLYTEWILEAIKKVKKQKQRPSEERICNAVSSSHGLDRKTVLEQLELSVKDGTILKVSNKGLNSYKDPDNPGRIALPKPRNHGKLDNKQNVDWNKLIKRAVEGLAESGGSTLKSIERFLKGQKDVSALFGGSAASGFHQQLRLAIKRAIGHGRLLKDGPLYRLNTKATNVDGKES
Strand	E-score
ATGGTAGA	-0.0877
CTAGTAGA	-0.152
AACACGGT	0.111
AGCAGGCG	-0.00456

Block 2
Target: Interferon regulatory factor 7, full length, phosphomimetic (IRF7, Homo sapiens, UniProt Q92985, residues 1-503, S101K/S471D/S472D/S475D/S476D/S477D/S483D/S484D/S487D)
Technique: protein-binding microarray
Form: double-stranded DNA, one strand shown
Sample: in vitro
Tested at: 250 nM
Notes: 60-bp whole probe
Added: salmon DNA 0.4 mg/ml
Reference: random background probes
Direction: higher = stronger binding
Shared flanks, not repeated: GCCTAGCAC … GTCTTGATTCGCTTGACGCTGCTG
Construct (chain): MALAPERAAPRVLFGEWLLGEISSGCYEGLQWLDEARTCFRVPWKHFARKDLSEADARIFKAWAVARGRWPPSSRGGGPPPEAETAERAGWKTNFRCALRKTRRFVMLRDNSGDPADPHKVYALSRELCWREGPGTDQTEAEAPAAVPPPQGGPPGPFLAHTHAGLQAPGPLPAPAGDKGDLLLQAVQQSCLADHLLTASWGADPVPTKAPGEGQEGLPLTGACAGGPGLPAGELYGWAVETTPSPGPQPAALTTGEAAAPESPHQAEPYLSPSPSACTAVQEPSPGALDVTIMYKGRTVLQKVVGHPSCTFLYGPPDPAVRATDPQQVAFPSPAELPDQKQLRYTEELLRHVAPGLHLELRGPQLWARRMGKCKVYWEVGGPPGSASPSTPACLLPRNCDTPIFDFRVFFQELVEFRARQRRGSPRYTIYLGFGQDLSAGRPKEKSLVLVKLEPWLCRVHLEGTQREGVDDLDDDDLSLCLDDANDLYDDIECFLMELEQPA
Strand	log fluorescence [z-score]
CTAGATATCAGACTGGATTAGTGCTAG	0.587
CACGGTTTCGGTTCCGGGACGTGCTAG	12.6
TCAAAACTCTTTATTTAACTGTGCTAG	0.395
CTACTTCTCTTTTTGCTTTCGTGCTAG	2.65
GACGAACTGGGGACTGGCGACGTGCTA	-0.822

Block 3
Target: Phosphate system positive regulatory protein PHO4, full length, GST-tagged (PHO4, Saccharomyces cerevisiae, UniProt P07270, residues 1-312)
Technique: competition protein-binding microarray
Form: double-stranded DNA, one strand shown
Sample: in vitro
Tested at: 2 µM
Notes: whole 60-bp probe, lowest competitor level
Added: Cbf1 competitor, 0.05 µM
Direction: higher = stronger binding
Target sequence (chain): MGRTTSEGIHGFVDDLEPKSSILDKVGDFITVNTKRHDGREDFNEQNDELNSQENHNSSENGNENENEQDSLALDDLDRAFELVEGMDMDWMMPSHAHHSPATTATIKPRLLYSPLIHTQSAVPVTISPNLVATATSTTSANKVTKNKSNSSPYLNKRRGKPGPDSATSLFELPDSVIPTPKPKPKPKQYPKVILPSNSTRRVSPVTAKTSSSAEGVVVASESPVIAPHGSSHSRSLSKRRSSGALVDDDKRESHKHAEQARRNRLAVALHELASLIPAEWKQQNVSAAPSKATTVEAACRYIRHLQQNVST
Strand	fluorescence intensity [a.u.]
AGGGTGGTATGGATACACGGGAAGCTGGGTGCTGCAGTCTTGATTCGCTTGACGCTGCTG	5370
AAAGCGGTAATTTGCGTGGTGGGTGCAGATATCTATGTCTTGATTCGCTTGACGCTGCTG	5690
AATCATGGAATCCATCACGTGGTCGCAACTGGGGATGTCTTGATTCGCTTGACGCTGCTG	19000
TAATTTCGAAGTACCTATATTTTTAACCAATCTCGGGTCTTGATTCGCTTGACGCTGCTG	2560

Single results of other studies
Substance	target	assay	system	conditions	how to read	measurement	result
PhoQ, residues 284 288 289 292 302 303 SLKLQV	PhoP, residues 12 14 15 18 19 HLGGL (Escherichia coli, UniProt P23836)	Sort-seq, measured: YFP reporter	E. coli	PhoQ-PhoP variant library, added: 10 µM Mg2+	reference: high Mg2+ state, higher = stronger signaling	fold induction	0.771
